Assay results collected from several papers.
± gives the spread as reported. ≈ marks a conversion by molar mass, not a printed value.

SMILES	test	test system	conditions	scale	quantity	result
CC(C)[C@H](NC(=O)[C@@H]1CCCN1C(=O)[C@H](CCCNC(=N)N)NC(=O)[C@H](CS)NC(=O)[C@H](Cc1c[nH]c2ccccc12)NC(=O)[C@H](CCCNC(=N)N)NC(=O)[C@@H](Cc1ccccc1)NC(=O)[C@H](Cc1c[nH]cn1)NC(=O)[C@H](CCC(=O)O)NC(=O)[C@H](CS)NC(=O)[C@H](CS)NC(=O)[C@@H]1CC(=O)N[C@@H](CCCNC(=N)N)C(=O)NCC(=O)N[C@@H](CC(=O)O)C(=O)N[C@H](Cc2ccc(O)cc2)C(=O)N1)C(N)=O [technetium-99m labelled]	–	C57 mice B16/F1 melanoma female, urine	iv, 0.037 MBq, 0.5 h	–	excretion	29.3 ± 12.4%
CCCC[C@H](NC(C)=O)C(=O)N[C@H]1CC(=O)NCCCC[C@@H](C(=O)N[C@@H](C(=O)N2CCC[C@@H]2C(N)=O)C(C)C)NC(=O)[C@H](Cc2c[nH]c3ccccc23)NC(=O)[C@H](CCCN=C(N)N)NC(=O)[C@@H](Cc2ccc3ccccc3c2)NC(=O)[C@@H]2CCCN2C1=O	–	Beagle dog, both sexes, plasma	subcutaneous, once daily, 2.25 mg/kg, day 28	–	half-life	3.7 ± 0.5 h
CC[C@H](C)[C@H](NC(=O)[C@H](C)NC(=O)CNC(=O)[C@H](Cc1ccccc1)NC(=O)[C@H](CC(N)=O)NC(=O)[C@H](CC(N)=O)NC(=O)[C@H](CO)NC(=O)[C@H](CO)NC(=O)[C@H](Cc1c[nH]cn1)NC(=O)[C@@H](NC(=O)[C@H](CC(C)C)NC(=O)[C@H](Cc1ccccc1)NC(=O)[C@H](CC(N)=O)NC(=O)[C@H](C)NC(=O)[C@H](CC(C)C)NC(=O)[C@H](CCCNC(=N)N)NC(=O)[C@H](CCC(N)=O)NC(=O)[C@@H](NC(=O)[C@H](C)NC(=O)[C@@H]1CSSC[C@H](NC(=O)[C@@H](N)CCCCN)C(=O)N[C@@H](CC(N)=O)C(=O)N[C@@H]([C@@H](C)O)C(=O)N[C@@H](C)C(=O)N[C@@H]([C@@H](C)O)C(=O)N1)[C@@H](C)O)C(C)C)C(=O)N[C@@H](CC(C)C)C(=O)N1CCC[C@H]1C(=O)N1CCC[C@H]1C(=O)N[C@H](C(=O)N[C@@H](CC(N)=O)C(=O)N[C@H](C(=O)NCC(=O)N[C@@H](CO)C(=O)N[C@@H](CC(N)=O)C(=O)N[C@H](C(=O)N[C@@H](Cc1ccc(O)cc1)C(N)=O)[C@@H](C)O)C(C)C)[C@@H](C)O	ion mobility mass spectrometry	nitrogen drift gas	dimer charge +5, second conformer	–	collision cross section	929 ± 15.4 Å²
CC(C)=CCC[C@](C)(O)[C@H]1CC[C@]2(C)[C@@H]1[C@H](O)C[C@@H]1[C@@]3(C)CC[C@H](O)C(C)(C)[C@@H]3CC[C@]12C	–	Labrasol	72 h, 25 °C	–	solubility	8630 ± 1780 µg/mL (≈ 18.7 mM)
CC(C)(O)c1ncc([S@](N)(=O)=NC(=O)Nc2c3c(cc4c2CCC4)CCC3)s1	–	healthy humans	oral, up to 10 mg, suspension, median range	–	Tmax	0.76 to 1 h
CCCC[C@H](NC(C)=O)C(=O)N[C@H]1CC(=O)NCCCC[C@@H](C(=O)N[C@@H](C(=O)N2CCC[C@@H]2C(N)=O)C(C)C)NC(=O)[C@H](Cc2c[nH]c3ccccc23)NC(=O)[C@H](CCCN=C(N)N)NC(=O)[C@@H](Cc2ccc3ccccc3c2)NC(=O)[C@@H]2CCCN2C1=O	–	dog	day 1, start of treatment	–	mean corpuscular haemoglobin	23.7 pg
CCCC[C@@H]1NC(=O)[C@@H](NC(=O)[C@H](CCC(=O)O)NC(=O)CNC(=O)CN2CCN(CC(=O)O)CCN(CC(=O)O)CCN(CC(=O)O)CC2)CCCCNC(=O)C[C@@H](C(N)=O)NC(=O)[C@H](C(C)C)NC(=O)[C@@H]2CCCN2C(=O)[C@H](CCCNC(=N)N)NC(=O)CNC(=O)[C@H](Cc2c[nH]c3ccccc23)NC(=O)[C@H](CCCNC(=N)N)NC(=O)[C@@H](Cc2ccccc2)NC(=O)[C@H](Cc2c[nH]cn2)NC(=O)[C@H](CCC(=O)O)NC1=O [gallium-67 labelled]	–	C57 mice with B16/F1 melanoma	intravenous, 0.037 MBq/mouse, 4 h	baseline: tumour over lung	tumour to lung ratio	73.8
CC(C)(C)NCC(=O)O	shake flask	water	24 h	–	logP	-1.91
O=C(CCc1ccc(CNC(C(=O)OC2CCCC2)C2CCCCC2)cn1)NO (centres unmarked)	–	human, plasma	oral, 20 mg, single dose, patients	–	Cmax	47.4 ng/mL
COc1ccc([C@@H]2CC(=O)c3c(O)cc(O[C@@H]4O[C@H](CO[C@@H]5O[C@@H](C)[C@H](O)[C@@H](O)[C@H]5O)[C@@H](O)[C@H](O)[C@H]4O)cc3O2)cc1O	–	rat plasma	15.62 ng/mL, -80 °C, long-term storage	baseline: nominal concentration	relative error	9.43%
CCOc1c(C(C)(C)O)sc2cnc(Nc3ccc(N4CCC(N5CC6(COC6)C5)CC4)cc3OC)nc12	–	New Zealand rabbit, male, isolated Purkinje fibres	30 µM, 45 min, pacing 3 Hz	–	action potential amplitude change	-5 ± 1%
Cn1c(=O)oc2ccc(-c3ccc(CC(C#N)NC(=O)C4CNCCCO4)c(F)c3)cc21 (centres unmarked)	refers to: urinary occult blood positive	human	60 mg single dose, fasted	–	subjects with TEAE	16.7%
N#CC1(c2ccc3c(N)ncnn23)OC(COP(=O)(O)O)C(O)C1O (centres unmarked)	LC-MS/MS	CD-1 mouse male, kidney	oral, 100 mg/kg of remdesivir	–	Tmax	1 h
C[C@H]1NSc2nc(=O)c3[nH]ccc3n2Cc2ccc(Cl)cc21	–	female rats, plasma	125 mg/kg, human dose 10 mg	baseline: rat over human	exposure ratio	not detected
CN1CCC[C@]1(C)/C=C/S(=O)(=O)NC(=O)Nc1c2c(cc3c1CCC3)CCC2	–	human, plasma	oral, 400 mg single dose	–	CL/F	1.2 L/h
CC[C@H](C)[C@H](NC(=O)[C@H](CC(C)C)NC(=O)[C@H](Cc1c[nH]c2ccccc12)NC(=O)[C@H](C)NC(=O)[C@@H](NC(=O)[C@H](Cc1ccccc1)NC(=O)[C@H](CC(=O)O)NC(=O)[C@H](CCCNC(=N)N)NC(=O)[C@H](C)NC(=O)[C@H](C)NC(=O)[C@H](CC(C)C)NC(=O)[C@H](C)NC(=O)[C@H](CC(=O)O)NC(=O)[C@H](CC(C)C)NC(=O)[C@@H](NC(=O)[C@@H](NC(=O)[C@H](C)NC(=O)[C@H](CC(C)C)NC(=O)[C@H](CCC(=O)O)NC(=O)[C@H](CO)NC(=O)[C@H](CO)NC(=O)[C@H](Cc1ccccc1)NC(=O)[C@@H](NC(=O)CNC(=O)[C@H](CCC(=O)O)NC(=O)CNC(=O)[C@@H](N)Cc1c[nH]cn1)[C@@H](C)O)[C@@H](C)O)[C@@H](C)CC)[C@@H](C)CC)C(=O)N[C@@H](C)C(=O)N[C@H](C(=O)N[C@@H](CCCCN)C(=O)N[C@H](C(=O)N[C@H](C(=O)N[C@@H](CC(=O)O)C(=O)N[C@@H](CCCCN)C(=O)N[C@@H](CCCCN)C(=O)O)[C@@H](C)O)[C@@H](C)CC)[C@@H](C)O	immunoaffinity LC-MS/MS	healthy human subjects, plasma	subcutaneous, 10 mg once weekly, day 36 after 6 doses, steady state, geometric mean	–	AUCtau	0.0152 µM·h

SMILES	test	test system	conditions	scale	quantity	result
CC/C=C\C/C=C\C/C=C\C/C=C\C/C=C\CCCCOC(CC)C(=O)O (centres unmarked)	[14C] label	male Wistar rat, subcutaneous fat	oral, 100 mg/kg, 4 h	–	radioactivity concentration	25.3 µg equiv/g
Cc1ccc(OCC(=O)O)cc1	–	Sprague-Dawley rat, female, plasma	oral, 100 mg/kg/day of parent drug, day 1, 90-day repeated dosing	–	Tmax	3 h
C=C(c1cc(F)c(C(=O)O)c(F)c1)c1cc2c(cc1C)C(C)(C)CCC2(C)C	–	Sprague-Dawley rat, male	oral, 100 mg/kg, 1 h, sesame oil vehicle	–	blood triglycerides	50 ± 19.1 mg/dL
CC1=C(C2=C(C)C(=O)c3c(cc(O)c(O)c3Cc3ccccc3)C2=O)C(=O)c2cc(O)c(O)c(Cc3ccccc3)c2C1=O (racemic)	–	rat plasma	100 µM, 1 h	–	degraded compound	1 ± 0.5%
COc1cc(NC(C)=O)c2c(c1O)-c1c(OC)c(OC)cc3c1C(C2)N(C)CC3 (centres unmarked)	–	rat, plasma	50 µg/mL, time not given, -20 °C to room temperature, three freeze-thaw cycles	–	remaining compound	105 ± 6.6%
N=C(N)NCCC[C@@H]1NC(=O)[C@H](Cc2c[nH]c3ccccc23)NC(=O)[C@@H](CC2CCCCC2)NC(=O)[C@@H]2CCCN2C(=O)[C@@H](NC(=O)CCc2ccccc2)CCCNC1=O	–	C57BL/6J mice, spinal cord	oral, 1 mg/kg, two-compartment model	–	apparent peripheral volume (V2/F)	< 0.001 µg/(ng/g)
CC(C)(F)CC(NC(c1ccc(-c2ccc(S(C)(=O)=O)cc2)cc1)C(F)(F)F)C(=O)NCC#N (centres unmarked)	LC-MS UV trace	aqueous buffer	concentration not given, 23 h, pH 8.0, 37 °C, added: cysteine 10 mM	–	cysteine adduct formation	98%
CC1=CC(C)(C)N=C2C=CC(=O)C=C12	LC-MS/MS	piglets, subcutaneous fat	oral in feed, 50 mg/kg feed ethoxyquin, 42 days	–	tissue residue	25.6 ± 9.4 ng/g
COc1cc2c(cc1OC)CN(CCCCn1ccc3cc(OCC[18F])ccc31)C2	–	male CD-1 mouse, pancreas	intravenous, 280 kBq, 30 min	–	tracer uptake	34.1 %ID/g
CC12CC(c3ccc(S(C)(=O)=O)cc3)C3=C4CCC(=O)C=C4CCC3C1CCC2(O)C(F)(F)C(F)(F)F (centres unmarked)	refers to: total radioactivity	human, urine	oral, 5 mg, 21 days	–	dose recovered in urine	13.1 ± 1.71%
O=C(O)C1OC(OC2CCC(C(O)CC3c4c(F)cccc4-c4cncn43)CC2)C(O)C(O)C1O (centres unmarked)	–	human, urine and faeces	oral, 200 mg, [14C]-navoximod dosed	baseline: dose	total excretion urine plus faeces	8.74%
CCCC[C@H](NC(=O)CNC(=O)CNC(=O)CN1CCN(CC(=O)O)CCN(CC(=O)O)CCN(CC(=O)O)CC1)C(=O)N[C@H]1CC(=O)NCCCC[C@@H](C(N)=O)NC(=O)[C@H](Cc2c[nH]c3ccccc23)NC(=O)[C@H](CCCNC(=N)N)NC(=O)[C@@H](Cc2ccccc2)NC(=O)[C@H](Cc2c[nH]cn2)NC1=O [indium-111 labelled]	–	C57 mouse, female, B16/F1 melanoma	intravenous, 0.037 MBq, 4 h	–	tumour to liver ratio	31
Cc1ccc(OCC(=O)Nc2cc[nH]n2)cc1	LC-MS EIC	dog liver microsomes, pooled, both sexes	10 µM, 60 min	baseline: reference compound at start	relative peak area	5.14%
COC(=O)c1ccc(-c2cn(Cc3cc(Cl)ccc3O[11CH3])nn2)cc1	PET/CT	C57BL/6 mouse, brain	–	–	maximum brain uptake	2.7 %ID/cc
COc1ccc2cc(-c3ccc(-c4ccc(C)cn4)nc3)oc2c1	TCSPC	MeOH	–	–	fluorescence lifetime	2.18 ns
CC(C)c1cnc(-c2cc(Cl)ccc2F)cc1Nc1ccncc1C(=O)NC(CO)CO	monotherapy, refers to: myalgia	human patients	oral, dose not given, grade 3, phase I A	–	patients with treatment-related adverse event	0%

Some of these lines once more:
SMILES	test	test system	conditions	scale	quantity	result
CCCC[C@H](NC(C)=O)C(=O)N[C@H]1CC(=O)NCCCC[C@@H](C(=O)N[C@@H](C(=O)N2CCC[C@@H]2C(N)=O)C(C)C)NC(=O)[C@H](Cc2c[nH]c3ccccc23)NC(=O)[C@H](CCCN=C(N)N)NC(=O)[C@@H](Cc2ccc3ccccc3c2)NC(=O)[C@@H]2CCCN2C1=O	–	dog	day 1, start of treatment	–	mean corpuscular haemoglobin	23.7 pg
CN1CCC[C@]1(C)/C=C/S(=O)(=O)NC(=O)Nc1c2c(cc3c1CCC3)CCC2	–	human, plasma	oral, 400 mg single dose	–	CL/F	1.2 L/h
Cc1ccc(OCC(=O)O)cc1	–	Sprague-Dawley rat, female, plasma	oral, 100 mg/kg/day of parent drug, day 1, 90-day repeated dosing	–	Tmax	3 h
